Measured values from different studies.
Each line is one published result; not all experiments were run side by side. ± marks the error that the study gave.

Protein sequences, listed by entry. Tags and fused reporters are not part of them. Lines headed by an entry give the natural chain unless they say otherwise; changes in a name come on top. Residues count along the entry.
UniProt P21462, whole entry: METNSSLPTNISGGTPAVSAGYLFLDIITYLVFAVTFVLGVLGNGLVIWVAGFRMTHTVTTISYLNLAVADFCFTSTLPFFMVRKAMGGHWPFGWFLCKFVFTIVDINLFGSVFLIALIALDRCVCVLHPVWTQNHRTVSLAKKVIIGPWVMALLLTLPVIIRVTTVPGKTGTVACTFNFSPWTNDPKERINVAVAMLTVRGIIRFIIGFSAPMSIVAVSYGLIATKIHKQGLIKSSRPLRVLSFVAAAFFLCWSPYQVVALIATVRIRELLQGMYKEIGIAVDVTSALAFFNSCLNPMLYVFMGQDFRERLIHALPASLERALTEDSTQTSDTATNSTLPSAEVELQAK
UniProt Q5BJF2, whole entry: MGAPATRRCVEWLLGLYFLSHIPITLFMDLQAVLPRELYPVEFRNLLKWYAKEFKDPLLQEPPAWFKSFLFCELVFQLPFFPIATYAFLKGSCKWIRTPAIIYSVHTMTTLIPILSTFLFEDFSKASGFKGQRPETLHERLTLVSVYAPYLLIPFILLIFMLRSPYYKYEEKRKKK
UniProt O15151, 23-111 limits assumed: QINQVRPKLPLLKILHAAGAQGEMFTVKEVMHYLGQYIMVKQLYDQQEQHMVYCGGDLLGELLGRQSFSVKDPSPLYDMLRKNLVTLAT
UniProt Q9QYN8, whole entry: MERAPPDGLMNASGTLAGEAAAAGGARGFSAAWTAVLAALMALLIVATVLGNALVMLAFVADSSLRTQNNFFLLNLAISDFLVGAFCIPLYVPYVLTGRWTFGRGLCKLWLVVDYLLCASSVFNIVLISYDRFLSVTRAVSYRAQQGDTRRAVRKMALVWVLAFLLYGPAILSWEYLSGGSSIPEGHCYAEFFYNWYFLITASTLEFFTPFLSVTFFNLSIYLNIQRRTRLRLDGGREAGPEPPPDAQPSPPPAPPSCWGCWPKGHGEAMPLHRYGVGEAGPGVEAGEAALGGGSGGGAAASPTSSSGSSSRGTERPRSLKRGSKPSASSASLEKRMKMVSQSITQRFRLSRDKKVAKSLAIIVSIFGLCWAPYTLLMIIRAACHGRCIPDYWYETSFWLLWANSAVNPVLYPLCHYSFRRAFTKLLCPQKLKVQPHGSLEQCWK
UniProt P00492, whole entry: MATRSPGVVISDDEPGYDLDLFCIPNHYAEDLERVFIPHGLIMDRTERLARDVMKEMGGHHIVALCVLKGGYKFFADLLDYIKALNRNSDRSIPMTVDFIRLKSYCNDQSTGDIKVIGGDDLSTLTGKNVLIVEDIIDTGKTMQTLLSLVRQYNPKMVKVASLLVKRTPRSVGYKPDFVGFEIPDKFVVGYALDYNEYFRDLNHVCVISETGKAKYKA
UniProt Q07864, whole entry: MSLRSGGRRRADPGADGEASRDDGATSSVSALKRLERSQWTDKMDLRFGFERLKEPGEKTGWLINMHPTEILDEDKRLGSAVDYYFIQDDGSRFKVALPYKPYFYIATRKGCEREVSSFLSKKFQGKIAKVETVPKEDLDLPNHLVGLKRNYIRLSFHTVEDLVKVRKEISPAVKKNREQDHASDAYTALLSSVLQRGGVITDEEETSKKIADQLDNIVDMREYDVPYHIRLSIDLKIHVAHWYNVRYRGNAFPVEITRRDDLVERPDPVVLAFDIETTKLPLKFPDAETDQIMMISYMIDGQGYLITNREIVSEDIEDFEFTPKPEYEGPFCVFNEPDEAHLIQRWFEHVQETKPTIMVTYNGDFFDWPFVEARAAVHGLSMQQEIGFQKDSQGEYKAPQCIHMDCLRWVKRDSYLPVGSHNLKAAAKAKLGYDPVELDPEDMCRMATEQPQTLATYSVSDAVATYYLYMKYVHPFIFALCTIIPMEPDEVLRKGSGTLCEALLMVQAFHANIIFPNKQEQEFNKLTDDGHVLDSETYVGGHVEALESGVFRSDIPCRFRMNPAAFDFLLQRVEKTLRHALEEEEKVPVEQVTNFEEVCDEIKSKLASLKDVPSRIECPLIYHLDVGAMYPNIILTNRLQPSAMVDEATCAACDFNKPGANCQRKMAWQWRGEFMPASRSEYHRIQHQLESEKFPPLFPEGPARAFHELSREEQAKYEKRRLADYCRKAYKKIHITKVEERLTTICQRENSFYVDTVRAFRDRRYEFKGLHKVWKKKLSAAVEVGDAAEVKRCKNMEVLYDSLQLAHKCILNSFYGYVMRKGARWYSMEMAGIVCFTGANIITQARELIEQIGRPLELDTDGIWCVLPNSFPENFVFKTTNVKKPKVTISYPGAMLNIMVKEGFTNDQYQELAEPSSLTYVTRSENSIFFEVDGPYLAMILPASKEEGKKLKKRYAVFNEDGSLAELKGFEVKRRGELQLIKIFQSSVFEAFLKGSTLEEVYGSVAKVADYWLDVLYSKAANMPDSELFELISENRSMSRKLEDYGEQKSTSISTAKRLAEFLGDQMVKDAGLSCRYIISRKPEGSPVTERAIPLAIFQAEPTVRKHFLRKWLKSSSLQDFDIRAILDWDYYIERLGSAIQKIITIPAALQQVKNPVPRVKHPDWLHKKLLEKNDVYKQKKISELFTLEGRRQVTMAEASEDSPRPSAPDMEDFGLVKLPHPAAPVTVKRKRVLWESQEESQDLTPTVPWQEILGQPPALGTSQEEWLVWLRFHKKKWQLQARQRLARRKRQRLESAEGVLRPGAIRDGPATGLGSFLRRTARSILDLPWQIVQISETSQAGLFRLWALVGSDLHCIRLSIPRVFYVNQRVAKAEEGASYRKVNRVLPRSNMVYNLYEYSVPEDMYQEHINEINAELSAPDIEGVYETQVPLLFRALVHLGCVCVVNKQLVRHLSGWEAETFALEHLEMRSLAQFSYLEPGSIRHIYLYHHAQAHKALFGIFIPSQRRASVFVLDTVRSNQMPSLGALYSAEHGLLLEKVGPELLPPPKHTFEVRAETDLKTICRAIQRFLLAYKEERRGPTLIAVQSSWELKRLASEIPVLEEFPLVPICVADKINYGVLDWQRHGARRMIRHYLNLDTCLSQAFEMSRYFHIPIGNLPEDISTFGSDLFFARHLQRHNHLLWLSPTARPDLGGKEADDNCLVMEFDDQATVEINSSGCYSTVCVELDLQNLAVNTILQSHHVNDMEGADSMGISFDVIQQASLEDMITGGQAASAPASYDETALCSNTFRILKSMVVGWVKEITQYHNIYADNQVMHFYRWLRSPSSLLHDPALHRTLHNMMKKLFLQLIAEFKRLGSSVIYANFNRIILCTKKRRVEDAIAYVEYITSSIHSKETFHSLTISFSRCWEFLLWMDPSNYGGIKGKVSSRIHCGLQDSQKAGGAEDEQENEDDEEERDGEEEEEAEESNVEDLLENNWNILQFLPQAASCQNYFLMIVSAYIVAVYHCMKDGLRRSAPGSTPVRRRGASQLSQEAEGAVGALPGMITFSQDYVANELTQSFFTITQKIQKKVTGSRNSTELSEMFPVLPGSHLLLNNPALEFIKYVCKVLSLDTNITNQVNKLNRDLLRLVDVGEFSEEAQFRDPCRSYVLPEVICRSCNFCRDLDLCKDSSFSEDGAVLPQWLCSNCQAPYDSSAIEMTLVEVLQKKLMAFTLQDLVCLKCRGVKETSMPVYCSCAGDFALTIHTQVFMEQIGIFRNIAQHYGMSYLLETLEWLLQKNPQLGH
UniProt P14416, whole entry: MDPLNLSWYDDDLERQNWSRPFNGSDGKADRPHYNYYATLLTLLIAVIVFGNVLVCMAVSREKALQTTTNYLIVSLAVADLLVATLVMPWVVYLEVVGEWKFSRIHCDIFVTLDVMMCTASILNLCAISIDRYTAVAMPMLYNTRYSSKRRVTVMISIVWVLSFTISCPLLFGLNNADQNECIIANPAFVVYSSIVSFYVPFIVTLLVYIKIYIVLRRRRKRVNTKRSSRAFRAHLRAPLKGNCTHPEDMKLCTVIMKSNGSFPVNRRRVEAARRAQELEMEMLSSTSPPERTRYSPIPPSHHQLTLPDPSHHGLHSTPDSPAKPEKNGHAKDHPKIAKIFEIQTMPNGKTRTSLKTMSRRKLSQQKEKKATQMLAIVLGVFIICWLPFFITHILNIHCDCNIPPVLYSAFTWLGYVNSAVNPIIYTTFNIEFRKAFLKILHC
UniProt Q16539, whole entry: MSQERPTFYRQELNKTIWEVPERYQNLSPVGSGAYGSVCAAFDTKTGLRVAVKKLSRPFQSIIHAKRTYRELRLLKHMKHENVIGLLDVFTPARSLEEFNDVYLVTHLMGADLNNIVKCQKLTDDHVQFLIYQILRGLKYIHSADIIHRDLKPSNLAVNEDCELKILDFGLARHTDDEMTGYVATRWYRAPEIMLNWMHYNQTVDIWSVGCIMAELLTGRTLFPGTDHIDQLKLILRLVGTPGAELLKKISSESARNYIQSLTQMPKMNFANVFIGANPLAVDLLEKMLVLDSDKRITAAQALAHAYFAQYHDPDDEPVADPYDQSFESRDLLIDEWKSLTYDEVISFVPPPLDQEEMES
UniProt O96013, whole entry: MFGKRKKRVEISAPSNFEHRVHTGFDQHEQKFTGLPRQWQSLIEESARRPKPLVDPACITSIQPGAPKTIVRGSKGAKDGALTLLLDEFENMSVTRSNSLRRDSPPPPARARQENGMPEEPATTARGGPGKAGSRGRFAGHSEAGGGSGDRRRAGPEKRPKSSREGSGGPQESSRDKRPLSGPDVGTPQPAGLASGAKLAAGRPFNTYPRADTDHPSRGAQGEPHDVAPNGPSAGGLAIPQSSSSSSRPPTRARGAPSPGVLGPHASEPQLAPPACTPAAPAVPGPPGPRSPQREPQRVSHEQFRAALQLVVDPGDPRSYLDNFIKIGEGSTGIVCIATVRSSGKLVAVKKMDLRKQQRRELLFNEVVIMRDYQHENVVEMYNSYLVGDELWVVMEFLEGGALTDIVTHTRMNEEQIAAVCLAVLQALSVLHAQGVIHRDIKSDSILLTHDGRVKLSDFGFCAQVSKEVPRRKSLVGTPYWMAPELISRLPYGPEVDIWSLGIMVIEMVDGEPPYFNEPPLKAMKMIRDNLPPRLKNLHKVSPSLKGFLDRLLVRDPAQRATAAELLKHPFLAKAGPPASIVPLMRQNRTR
UniProt P25090, whole entry: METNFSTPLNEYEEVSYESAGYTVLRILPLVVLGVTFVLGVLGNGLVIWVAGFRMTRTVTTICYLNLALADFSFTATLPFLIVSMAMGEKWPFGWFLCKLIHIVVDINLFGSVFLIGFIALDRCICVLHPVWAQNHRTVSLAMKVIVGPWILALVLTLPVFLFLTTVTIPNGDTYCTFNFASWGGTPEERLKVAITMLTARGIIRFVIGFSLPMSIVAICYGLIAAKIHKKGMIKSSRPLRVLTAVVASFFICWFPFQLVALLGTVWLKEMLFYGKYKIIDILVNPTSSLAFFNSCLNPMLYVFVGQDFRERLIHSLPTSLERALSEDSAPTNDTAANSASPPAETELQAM

SMILES = COc1ccc(-c2cn3cccnc3n2)cc1NC(=O)C(C)C; target or system = fMet-Leu-Phe receptor (FPR1, Homo sapiens, UniProt P21462); assay = binding; setting = above upper limit in 14 of 17 runs; endpoint = Ki; value = > 13300 nM
SMILES = CC(C)(CC(=O)Nc1nnc(S(N)(=O)=O)s1)C1CCCCC1; target or system = Enterococcus faecium gamma-carbonic anhydrase; assay = CO2 hydration, inhibitor, stopped-flow kinetics; endpoint = Ki; value = 283 nM
SMILES = N#Cc1c(-c2ccc(Cl)cc2Cl)n(-c2nc(-c3ccc(Cl)cc3)c3c(NC(=O)c4ccccc4)nnc-3[nH]2)[nH]c1=O; target or system = NCI60 panel; assay = SRB; setting = 10 µM; endpoint = mean cell growth; value = 13.4%
SMILES = CN1C(=O)CCc2cc(CNC(C)(C)[C@@H](O)c3ccccc3)ccc21; target or system = Sigma intracellular receptor 2 (TMEM97, Homo sapiens, UniProt Q5BJF2); assay = binding, [3H]DTG displacement; system = Expi293 membranes; endpoint = Ki; value = 4 nM
SMILES = CC(C)C[C@H](NC(=O)[C@@H](NC(=O)[C@H](CC(C)C)NC(=O)[C@H](CS)NC(=O)CNS(=O)(=O)c1cccc2c(N(C)C)cccc12)C(C)C)C(=O)O; target or system = geranylgeranyltransferase type-I (Rattus norvegicus, UniProt P53610+Q04631); assay = substrate, fluorescence; setting = 30 °C, GGPP 10 µM/enzyme 10 nM, added: SmgGDS-607 5 µM/GTP 30 µM; endpoint = kcat; value = 0.049 ± 0.016 s⁻¹
SMILES = COc1ccc(C2=N[C@@H](c3cccc(Cl)c3)[C@@H](c3ccc(Cl)cc3)N2C(=O)N2CCNC(=O)C2)c(OC(C)C)c1 (relative stereo); target or system = Protein Mdm4 (MDM4, Homo sapiens, UniProt O15151); assay = NMR HSQC titration; setting = pH 6.5, 298 K, global fit; endpoint = Kd; value = 1700 ± 1100 nM
SMILES = c1cnc2c(N3CCN(CCCN4CCN(c5cccc6sccc56)CC4)CC3)cccc2c1; target or system = Histamine H3 receptor (Hrh3, Rattus norvegicus, UniProt Q9QYN8); assay = binding; system = rat cerebral cortex membranes; setting = added: [3H]N-alpha-methylhistamine; endpoint = Ki; value = 753 ± 98.5 nM
SMILES = O=c1[nH]cnc2c(CNCCCP(=O)(O)O)c[nH]c12; target or system = Hypoxanthine-guanine phosphoribosyltransferase (Homo sapiens, UniProt P00492); assay = enzyme activity, inhibitor, spectrophotometric; endpoint = Ki; value = 4940 nM
SMILES = NS(=O)(=O)c1nnc(NC(=O)CC2C3CC4CC(C3)CC2C4)s1 (stereo not drawn); target or system = Enterococcus faecium gamma-carbonic anhydrase; assay = CO2 hydration, inhibitor, stopped-flow kinetics; endpoint = Ki; value = 182 nM
SMILES = CC/C=C\C/C=C\CCC/C=C/C=C/C=C\CCCC(=O)O; target or system = POLE (Homo sapiens, UniProt Q07864); assay = enzyme activity, inhibitor; endpoint = IC50; value = 27400 ± 1600 nM
SMILES = CCn1c2c(c3ccccc31)CCN(CCCCNC(=O)c1ccc3[nH]c4ccccc4c3c1)C2; target or system = D(2) dopamine receptor (DRD2, Homo sapiens, UniProt P14416); assay = binding; endpoint = Ki; value = > 10000 nM
SMILES = C=C(C)C(=O)Nc1ccc(-c2c(-c3ccc(Oc4nccc(C)n4)c(F)c3)c3c(N)ncnc3n2C)cc1; target or system = MFM-223; assay = cell proliferation, live-cell imaging (IncuCyte); setting = concentration not given, single agent, from treatment start; endpoint = time to proliferation rebound; value = ~34 days
SMILES = CC(C)C[C@H](NC(=O)[C@H](C)NC(=O)[C@H](CCCNC(=N)N)NC(=O)[C@H](CCCNC(=N)N)NC(=O)[C@H](CCCNC(=N)N)NC(=O)[C@H](C)NC(=O)[C@H](CC(C)C)NC(=O)[C@H](CCCNC(=N)N)NC(=O)[C@H](CO)NC(=O)[C@H](CCCCN)NC(=O)[C@H](CO)NC(=O)Cn1cc(COC(=O)[C@]2(C)C=C(C(=O)OC(C)(C)C)C(=O)CC2)nn1)C(=O)O; target or system = Mitogen-activated protein kinase 14 (MAPK14, Homo sapiens, UniProt Q16539); assay = D-peptide displacement, fluorescence polarization; endpoint = Ki; value = ~3 nM
SMILES = CCOC(=O)c1c(-c2ccc(Cl)cc2Cl)n(-c2nc(-c3ccc(Cl)cc3)c3c(NC(=O)c4ccccc4)nnc-3[nH]2)[nH]c1=O; target or system = NCI60 panel; assay = SRB; setting = 10 µM; endpoint = mean cell growth; value = 2.3%
SMILES = NS(=O)(=O)c1nnc(NC(=O)C2C3CC2C3)s1 (stereo not drawn); target or system = Carbonic anhydrase 2 (CA2, Homo sapiens, UniProt P00918); assay = CO2 hydration, inhibitor, stopped-flow kinetics; endpoint = Ki; value = 30.5 nM
SMILES = Nc1nccc(-n2cc(C(=O)N3CCCC3)c3ccc(C#CC4(O)CCCCC4)cc32)n1; target or system = Serine/threonine-protein kinase PAK 4 (PAK4, Homo sapiens, UniProt O96013); assay = inhibitor, HTRF; endpoint = Ki; value = 455 nM
SMILES = NS(=O)(=O)c1nnc(NC(=O)C2C3CC4CC(C3)CC2C4)s1 (stereo not drawn); target or system = Enterococcus faecium gamma-carbonic anhydrase; assay = CO2 hydration, inhibitor, stopped-flow kinetics; endpoint = Ki; value = 288 nM
SMILES = CCc1cc2c(=O)c(-c3nc4ccccc4n3C)c(C)oc2cc1OC(C)=O; target or system = N-formyl peptide receptor 2 (FPR2, Homo sapiens, UniProt P25090); assay = binding; setting = above upper limit in 18 of 20 runs; endpoint = Ki; value = > 17800 nM

Repeated from above:
SMILES = CN1C(=O)CCc2cc(CNC(C)(C)[C@@H](O)c3ccccc3)ccc21; target or system = Sigma intracellular receptor 2 (TMEM97, Homo sapiens, UniProt Q5BJF2); assay = binding, [3H]DTG displacement; system = Expi293 membranes; endpoint = Ki; value = 4 nM
